Published values gathered from unrelated publications.
Parts stem from different laboratories: compare values within a part only.

Series 1
Organism: SARS-CoV-2 Wuhan spike VSV pseudovirus
Read-out: pseudovirus entry
Concentration: concentration not given
SMILES	inhibition [%]
Cc1nc(-c2cccc(Cl)c2)n(CC(=O)NCc2cccs2)c(=O)c1CCO	41
CC(C)c1ccc(CN2CCCC3(CCN(C(=O)c4ccc5[nH]cnc5c4)C3)C2)cc1 (stereo not shown)	38
Nc1onc(-c2ccc(F)cc2)c1-c1ccc(Cl)cc1	45
COc1nccnc1-c1ccnc2[nH]ccc12	43
Cc1cc(C)cc(NC(=O)N2c3ccccc3CC2c2noc(C3CCOCC3)n2)c1 (stereo not shown)	39

Further values, each from its own experiment
rep papain-like protease: Replicase polyprotein 1ab, papain-like protease (rep, Severe acute respiratory syndrome coronavirus 2, UniProt P0DTD1)
rep nsp14: Replicase polyprotein 1ab, nsp14 (rep, Severe acute respiratory syndrome coronavirus 2, UniProt P0DTD1)
Compound	target	test	setting	scale	endpoint	value
CC(C)(Oc1ccc(C(=O)c2ccc(Cl)cc2)cc1)C(=O)O	rep papain-like protease	–	concentration not given, C111S mutant	relative to: positive control	activity	21.7%
O=C(NC1CCN(c2ncnc3[nH]cnc23)CC1)c1cccc(S(=O)(=O)N2CCCC2)c1	rep nsp14	NSP14 enzyme activity, inhibitor	0.7812 µM	–	inhibition	19.8%
COc1ncc(-c2ccc3nccc(-c4ccnnc4)c3c2)cc1NS(=O)(=O)c1ccc(F)cc1F	Replicase polyprotein 1ab, nsp12 RdRp (rep, Severe acute respiratory syndrome coronavirus 2, UniProt P0DTD1)	binding, biolayer interferometry	concentration not given	–	BLI response	-0.02 nm
Nc1ncnc2c1ncn2[C@@H]1O[C@H](CSCC[C@H](N)C(=O)O)[C@@H](O)[C@H]1O	rep nsp14	thermal shift	62.5 µM	–	ΔTm	8.7 °C
NC1=N[C@@](c2cccc(-c3cncnc3)c2)(c2ccnc(C(F)F)c2)c2cccc(F)c21	rep papain-like protease	–	concentration not given, C111S mutant	relative to: positive control	activity	18.4%
